Measurements from different studies.
Each line is one published result; not all experiments were run side by side.
PTGES3: PTGES3 (Homo sapiens, UniProt Q15185)
Chain of UniProt Q15185 (whole entry, looked up): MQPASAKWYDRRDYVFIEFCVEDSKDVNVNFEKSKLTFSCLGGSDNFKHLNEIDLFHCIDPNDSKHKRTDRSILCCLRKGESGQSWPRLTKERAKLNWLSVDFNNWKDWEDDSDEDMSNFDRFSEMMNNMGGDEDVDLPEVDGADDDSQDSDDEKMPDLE
WRKY7 1-348: WRKY7 1-348 (Brassica napus, UniProt C5H9Z7)
T1: xseA/xseB 1-456;1-80 H238A (Escherichia coli); chain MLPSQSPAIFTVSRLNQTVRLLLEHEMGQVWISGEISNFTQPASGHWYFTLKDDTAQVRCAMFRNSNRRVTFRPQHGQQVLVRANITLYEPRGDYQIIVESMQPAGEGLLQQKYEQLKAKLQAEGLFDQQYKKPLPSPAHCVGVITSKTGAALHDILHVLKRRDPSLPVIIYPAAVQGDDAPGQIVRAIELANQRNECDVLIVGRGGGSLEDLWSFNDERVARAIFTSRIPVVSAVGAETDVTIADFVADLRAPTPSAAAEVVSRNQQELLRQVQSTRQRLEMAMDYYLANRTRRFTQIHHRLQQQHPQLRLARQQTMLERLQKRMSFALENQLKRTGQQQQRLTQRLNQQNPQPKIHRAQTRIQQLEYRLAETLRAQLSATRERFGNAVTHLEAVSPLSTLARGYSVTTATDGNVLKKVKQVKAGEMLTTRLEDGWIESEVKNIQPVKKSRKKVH; chain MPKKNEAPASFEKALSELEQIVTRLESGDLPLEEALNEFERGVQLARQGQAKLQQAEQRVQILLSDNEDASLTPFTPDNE

Molecule | tested on | assay | system | setting | quantity | result
CCCCGGTATCCCATCCAAGGCGATCAGTCCAGAACTGGCTCTCGGAAGCGCTCGGGC (dsDNA) | PTGES3 | EMSA | double-stranded DNA, one strand shown | – | binding | no binding
COc1ccc2nccc(CC[C@H]3OC[C@H](NC(=O)c4ccc(Cl)cc4)CO3)c2c1 | HepG2 | cytotoxicity | – | 24 h | IC50 | 4.41 µg/mL
ACTCGGGGAGGAGAGGGAGGGATCAGACAGGAGAGTGGGGACTACCCCCTCTGCTCC (dsDNA) | PTGES3 | EMSA | double-stranded DNA, one strand shown | – | binding | binds
CC[C@H](C)[C@@H](C(=O)N[C@@H](Cc1ccc(O)cc1)C(=O)N1CCC[C@H]1C(=O)N[C@@H](Cc1ccccc1)C(=O)O)n1cc(C(Cc2ccc(O)cc2)NC(=O)[C@@H](NC(=O)[C@H](CCCNC(=N)N)NC(=O)[C@@H](N)CC(=O)O)C(C)C)nn1 (stereo partly shown) | HepG2 | cell growth or viability, MTT | – | 25 µM, 24 h | viability | 82.8%
O=C1C(NCCc2ccc(O)c(Br)c2)=CC2=NCCc3c[nH]c1c32 | HepG2 | cell growth or viability, MTT | – | 72 h | CC50 | 4 µM
COc1ccc2ncc(F)c(C[C@H](O)[C@H]3OC[C@H](NCc4cc5c(nn4)OCCS5)CO3)c2n1 | HepG2 | cytotoxicity | – | 24 h | IC50 | > 128 µg/mL
C[N+]1=C2C=C(NCCc3c[nH]c4ccccc34)C(=O)c3[nH]cc(c32)CC1 | HepG2 | cell growth or viability, MTT | – | 72 h | CC50 | 1.5 µM
COc1ccc2ncc(F)c(C[C@H](O)[C@H]3OC[C@H](NCc4ccc5c(n4)NC(=O)CO5)CO3)c2c1 | HepG2 | cytotoxicity | – | 24 h | IC50 | > 128 µg/mL
C[C@@H]1C(=O)O[C@@H](C)/C=C/C=C\[C@@H](C)[C@@H]2C=C[C@@H]3C[C@@]4(C)O[C@H]4[C@@H](C)[C@H]3[C@@H]2C(=O)C(Cl)(Cl)C1=O | HepG2 | cell growth or viability, MTT | – | 5 days | IC50 | > 0.93 µg/mL
COc1ccc2c(c1)c1c(n2CO)CN2CCc3cc(OCc4cccc(F)c4)c(OC)cc3C2C1 (stereo not shown) | HepG2 | cell growth or viability | – | 20 µM, 24 h | viability | 95.7%
Cc1cc(C(=O)Nc2nc3cccc(C)c3n2[C@H]2CCCCN(C(=O)/C=C/CN(C)C)C2)ccn1 | HepG2 | cytotoxicity | – | 4 days, mean value | CC50 | 9.06 µM
C[N+](C)(CF)CCO | HepG2 | cell viability | glucose medium | 24 h, mitochondrial toxicity | IC50 | > 150 µM
GTGCTGGCCCATTGACTTTCTCTAAGTCCT (dsDNA) | WRKY7 1-348 | EMSA | double-stranded DNA, one strand shown | – | binding | binds
AGCGTGTTTTTTTTTTTTTTTTTTTTTTTTTTTTTTTTTTTTTTTTTTTTTTTTTTTTTTTTTTTTTTTTTTTTAGCGTG (ssDNA; circular) | T1, xseA/xseB 1-456;1-80 H238A (Escherichia coli) | mass photometry | single-stranded DNA | – | binding | binds
ATAGATTACAAAGTCAAAAAAAATCTTAAA (dsDNA) | WRKY7 1-348 | EMSA | double-stranded DNA, one strand shown | – | binding | binds
colistin | HepG2 | cytotoxicity, MTT | – | 48 h | IC50 | > 1280 µg/mL
CC1=C[C@@H](C)[C@H]2[C@@H]3C(=O)C(Cl)(Cl)C(=O)[C@H](C)C(=O)O[C@@H](C)/C=C/C=C\[C@@H](C)[C@@H]3C=C[C@@H]2C1 | HepG2 | cell growth or viability, MTT | – | 5 days | IC50 | > 0.37 µg/mL
COc1ccc2ncc(F)c(C[C@H](O)[C@H]3OC[C@H](NCc4ccc5c(c4)OCCO5)CO3)c2c1 | HepG2 | cytotoxicity | – | 24 h | IC50 | 63 µg/mL
c1cc2nc(c1)-c1cccc(n1)CCCc1ccc(cc1)OCCCCCCOc1ccc(cc1)CCC2 | HepG2 | cell growth or viability, MTT | – | 100 µM, 24 h | viability | 83.7%

A few entries again:
Molecule | tested on | assay | system | setting | quantity | result
COc1ccc2c(c1)c1c(n2CO)CN2CCc3cc(OCc4cccc(F)c4)c(OC)cc3C2C1 (stereo not shown) | HepG2 | cell growth or viability | – | 20 µM, 24 h | viability | 95.7%
Cc1cc(C(=O)Nc2nc3cccc(C)c3n2[C@H]2CCCCN(C(=O)/C=C/CN(C)C)C2)ccn1 | HepG2 | cytotoxicity | – | 4 days, mean value | CC50 | 9.06 µM
C[N+](C)(CF)CCO | HepG2 | cell viability | glucose medium | 24 h, mitochondrial toxicity | IC50 | > 150 µM
